Published values collected from several papers.
Lines come from different studies, so protocols differ. Values joined by “and” are separate records of one study, mostly repeats; a detail may differ. ± gives the spread as reported.
EPHX2: Bifunctional epoxide hydrolase 2 (EPHX2, Homo sapiens, UniProt P34913)
Melanocortin receptor 5: Melanocortin receptor 5 (Mus musculus, UniProt P41149)
Tpo: Thyroid peroxidase (Tpo, Rattus norvegicus, UniProt P14650)
EPHX2 N-terminal phosphatase domain: Bifunctional epoxide hydrolase 2, N-terminal phosphatase domain (EPHX2, Homo sapiens, UniProt P34913)

| SMILES | target | assay | system | conditions | endpoint | result |
| --- | --- | --- | --- | --- | --- | --- |
| O=c1ccn([C@@H]2O[C@H](COP(=O)(O)OP(=O)(O)OP(=O)(O)O)[C@@H](O)[C@H]2O)c(=O)[nH]1 | inositol pyrophosphate kinase Vip1, CTP-swap V2 (Trichoderma virens, UniProt Z9USF9BXN2) | 5'-deoxyadenosine formation, inhibitor, LC-MS | – | pH 7.5, together with: 1 mM deuterated CTP, 1 mM SAM | IC50 | > 9900 µM |
| C[C@@H](CNCc1ccccc1)N1C[C@H](CCCNC(=N)N)N(CCc2cccc(F)c2)C1=S | NPY2R (Homo sapiens, UniProt P49146) | receptor activation, antagonist, FLIPR | – | – | IC50 | > 10 µM |
| Nc1ncnc2nc[nH]c12 | Nucleoside transporter 1 (Plasmodium vivax, UniProt A5K8B0) | adenosine uptake, inhibitor | yeast expressing Nucleoside transporter 1 | 15 min, together with: [3H]adenosine 50 nM | IC50 | 278 µM |
| CC(C)COc1cccc(CC(=O)N2CCNc3nc(C(F)(F)F)ccc3[C@H]2CC(=O)O)c1 | Neuromedin-B receptor (Rattus norvegicus, UniProt P24053) | ligand displacement, radioligand | – | – | IC50 | > 3 µM |
| O=C(Nc1cc(C(F)(F)F)ccc1O)Nc1cc(C(F)(F)F)ccc1O | CACNA1I (Homo sapiens, UniProt Q9P0X4) | inhibitor, FLIPR calcium | HEK293 with GCaMP6s-CAAX, Kir2.3 | together with: KCl at EC90 | IC50 | 39 µM |
| C[C@]12C[C@@H]3C[C@](C)(C1)C[C@@](NC(=O)Nc1ccc(CN4CCC[C@H](C(=O)NCCCCC(=O)NO)C4)cc1F)(C3)C2 | EPHX2 | enzyme activity, inhibitor, fluorescence | – | – | IC50 | 0.0026 µM |
| CSCC[C@H](NC(=O)[C@H](CO)NC(=O)[C@H](Cc1ccc(O)cc1)NC(=O)[C@H](CO)NC(C)=O)C(=O)N[C@@H](CCC(=O)O)C(=O)N[C@@H](C)C(=O)N[C@@H](Cc1ccccc1)C(=O)N[C@@H](CCCNC(=N)N)C(=O)N[C@@H](Cc1c[nH]c2ccccc12)C(=O)NCC(=O)N[C@@H](CCCCN)C(=O)N1CCC[C@H]1C(=O)N[C@H](C(N)=O)C(C)C | Melanocortin receptor 5 | – | – | – | EC50 | 0.9 ± 0.35 µM |
| C#CCOCCC(=O)NC(Cc1ccc(F)cc1)C(=O)NC(Cc1ccccc1)C(=O)NC(C=CC(=O)OCC)CC1CCNC1=O (stereo not drawn) | Replicase polyprotein 1ab, main protease (rep, Severe acute respiratory syndrome coronavirus 2, UniProt P0DTD1) | enzyme activity, inhibitor | – | – | IC50 | 0.7 µM |
| O=P(O)(O)Oc1cc(OP(=O)(O)O)cc(-c2c(OP(=O)(O)O)cc(OP(=O)(O)O)cc2OP(=O)(O)O)c1 | Inositol polyphosphate-5-phosphatase A (Homo sapiens, UniProt Q14642) | enzyme activity, inhibitor | – | together with: Ins(1,4,5)P3 1.0 µM | IC50 | 1.85 µM |
| C=C(C)CCOP(=O)(O)OP(=O)(O)OP(=O)(O)OC[C@H]1O[C@@H](n2cnc3c(N)ncnc32)[C@H](O)[C@@H]1O | SGK3 (Homo sapiens, UniProt Q96BR1) | enzyme activity, inhibitor, HotSpot kinase | – | together with: ATP 1 µM | IC50 | 2.4 µM |
| CN1CCC[C@H]1COc1nc2c(c(N3CCN(S(C)(=O)=O)[C@@H](CC#N)C3)n1)CCN(c1cccc3cccc(Cl)c13)C2 | GTPase KRas (KRAS, Homo sapiens, UniProt P01116, G12C) | cell-based | – | – | IC50 | 3 µM |
| O=C(CCCCCCNC(=O)[C@H]1CCCN(C(=O)c2ccc(NC(=O)NC(c3ccccc3)c3ccccc3)c(F)c2)C1)NO | EPHX2 | enzyme activity, inhibitor, fluorescence | – | – | IC50 | 0.0102 µM |
| CSCC[C@H](NC(=O)[C@H](CO)NC(=O)[C@H](Cc1ccc(O)cc1)NC(=O)[C@H](CO)NC(C)=O)C(=O)N[C@@H](CCC(=O)O)C(=O)N[C@@H](Cc1c[nH]cn1)C(=O)N[C@@H](Cc1ccccc1)C(=O)N[C@@H](CCCNC(=N)N)C(=O)N[C@@H](Cc1c[nH]c2ccccc12)C(=O)NCC(=O)N[C@@H](CCCCN)C(=O)N1CCC[C@H]1C(=O)N[C@@H](C)C(N)=O | Melanocortin receptor 5 | – | – | – | EC50 | 0.03 ± 0.025 µM |
| O=C(O[C@@H]1Cc2c(O)cc(O)cc2O[C@@H]1c1cc(O)c(O)c(O)c1)c1cc(O)c(O)c(O)c1 | Tpo | tyrosine iodination, LC-MS/MS | rat thyroid microsomes | together with: KI 300 µM, H2O2 40 µM | IC50 | 0.27 µM |
| COCC(=O)O[C@]1(CCN(C)CCCc2nc3ccccc3[nH]2)CCc2cc(F)ccc2[C@@H]1C(C)C | Voltage-dependent P/Q-type calcium channel subunit alpha-1A, with β4/α2δ1 (Homo sapiens, UniProt O00555) | calcium current, blocker, automated patch clamp | holding potential -90 mV | last pulse of train, together with: 0.1 Hz pulse train | IC50 | 2.2 ± 0.6 µM |
| O=C(CCCCCCNC(=O)[C@H]1CCCN(C(=O)c2ccc(NC(=O)Nc3ccc(OC(F)(F)F)cc3)c(F)c2)C1)NO | EPHX2 | enzyme activity, inhibitor, fluorescence | – | – | IC50 | 0.0002 µM |
| COc1ccc(C[C@@H](NC(=O)OCC2c3ccccc3-c3ccccc32)C(=O)O)cc1 | EPHX2 N-terminal phosphatase domain | N-terminal phosphatase activity | human | 10 min preincubation, together with: AttoPhos 15 µM | IC50 | 6.5 µM |
| Cc1ccc2oc(=O)ccc2c1 | cysteine peptide Ac-RFAACAA-COOH | peptide depletion, DPRA RapidFire-MS/MS | – | 24 h, pH 7.5, room temperature, together with: 5.0 µM cysteine peptide | IC50 | inactive |
| CCCS(=O)(=O)Nc1cc(-c2cc(-c3ccccc3S(C)(=O)=O)cnc2N)ccc1OC | RIPK2 (Homo sapiens, UniProt O43353) | kinase activity, inhibitor, ADP-Glo | – | tested up to 10 µM | IC50 | > 10 µM |
| O=c1c(O)c(-c2ccc(O)c(O)c2)oc2cc(O)cc(O)c12 | firefly luciferase | ADP-Glo ADP processing, luminescence counter-screen | cell-free, no kinase | up to 77 µM, together with: ADP 1.25 µM, ATP 11.25 µM | IC50 | no inhibition |
| Nc1nc(=O)[nH]cc1F | EPHX2 N-terminal phosphatase domain | phosphatase activity, inhibitor | – | – | IC50 | > 100 µM |
| Nc1ncnc2c1ncn2[C@@H]1O[C@H](COP(=O)(O)OP(=O)(O)NP(=O)(O)O)[C@@H](O)[C@H]1O | Lrrk2 (Mus musculus, UniProt Q5S006) | enzyme activity, inhibitor, radiometric | – | – | Ki | 1800 µM |
| CC(C)C[C@H](NC(=O)[C@H](Cc1ccc2ccccc2c1)NC(=O)[C@H](CCC(=O)O)NC(=O)c1c(F)c(F)c(F)c(F)c1F)C(=O)NC1CC1c1ccccc1 (stereo partly drawn) | APC (Homo sapiens, UniProt P25054) | ligand displacement, FP | – | – | IC50 | 5.94 µM |
| O=c1c(O)c(-c2ccc(O)cc2)oc2cc(O)cc(O)c12 | Tpo | enzyme activity, inhibitor, LC-MS/MS, refers to: monoiodotyrosine | rat thyroid microsomes | together with: L-tyrosine substrate | IC50 | 2.74 µM and 5.45 µM |
| O=c1c(-c2ccccc2)c1-c1ccccc1 | cysteine peptide Ac-RFAACAA-COOH | peptide depletion, DPRA RapidFire-MS/MS | – | 24 h, pH 7.5, room temperature, together with: 5.0 µM cysteine peptide | IC50 | 23.8 µM |
| N#Cc1ccc2c(ccn2CC2CCN(C(=O)OC(C(F)(F)F)C(F)(F)F)CC2)c1 | MGLL (Homo sapiens, UniProt Q99685) | enzyme activity, inhibitor | – | – | IC50 | 0.41 µM |
| [H]/N=C(\N/C(=N/[H])NCCCCCCNC(=N)NC(=N)Nc1ccc(Cl)cc1)Nc1ccc(Cl)cc1 | Enhanced intracellular survival protein (Gordonia bronchialis, UniProt Z9YDP2SNH3) | – | – | – | IC50 | 4.4 ± 0.6 µM |

A few entries again:
| SMILES | target | assay | system | conditions | endpoint | result |
| --- | --- | --- | --- | --- | --- | --- |
| CSCC[C@H](NC(=O)[C@H](CO)NC(=O)[C@H](Cc1ccc(O)cc1)NC(=O)[C@H](CO)NC(C)=O)C(=O)N[C@@H](CCC(=O)O)C(=O)N[C@@H](C)C(=O)N[C@@H](Cc1ccccc1)C(=O)N[C@@H](CCCNC(=N)N)C(=O)N[C@@H](Cc1c[nH]c2ccccc12)C(=O)NCC(=O)N[C@@H](CCCCN)C(=O)N1CCC[C@H]1C(=O)N[C@H](C(N)=O)C(C)C | Melanocortin receptor 5 | – | – | – | EC50 | 0.9 ± 0.35 µM |
| CSCC[C@H](NC(=O)[C@H](CO)NC(=O)[C@H](Cc1ccc(O)cc1)NC(=O)[C@H](CO)NC(C)=O)C(=O)N[C@@H](CCC(=O)O)C(=O)N[C@@H](Cc1c[nH]cn1)C(=O)N[C@@H](Cc1ccccc1)C(=O)N[C@@H](CCCNC(=N)N)C(=O)N[C@@H](Cc1c[nH]c2ccccc12)C(=O)NCC(=O)N[C@@H](CCCCN)C(=O)N1CCC[C@H]1C(=O)N[C@@H](C)C(N)=O | Melanocortin receptor 5 | – | – | – | EC50 | 0.03 ± 0.025 µM |
